Results from different studies.
Numbered parts are unrelated; each lists some results of a single study. Positions count from the first letter of the parent shown.

Sample 1 — technique: protein binding microarray; form: double-stranded DNA, one strand shown; medium: in vitro; tested at: not given; reference: not given; reading: higher = stronger binding; quantity: E-score
Target: Histone acetyltransferase KAT6A, both winged helices, GST fusion (KAT6A, Homo sapiens, UniProt Q92794, residues 1-181)
Notes: 8-mer, flanks averaged, mean of 2 arrays, mostly near background
Construct (chain): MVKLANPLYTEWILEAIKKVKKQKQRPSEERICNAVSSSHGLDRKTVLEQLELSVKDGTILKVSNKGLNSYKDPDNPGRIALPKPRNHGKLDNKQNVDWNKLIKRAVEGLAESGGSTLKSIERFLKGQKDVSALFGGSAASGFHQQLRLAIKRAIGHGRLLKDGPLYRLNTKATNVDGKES
Strand = AAGTTAAA; value = -0.109
Strand = CGAGGTTC; value = -0.0126
Strand = CCTGATTA; value = -0.119
Strand = AGACTAGG; value = -0.108
Strand = GCAACCCC; value = 0.0939
Strand = CCGGTCCC; value = 0.227
Strand = ATTATGAG; value = -0.0264
Strand = CGATTCAC; value = 0.0117
Strand = CCAACGCC; value = 0.135
Strand = AGCGCATC; value = 0.226
Strand = CAGGACGA; value = -0.0703
Strand = TATCTCCA; value = -0.147
Strand = AATGACCG; value = 0.108
Strand = AGCGAGCT; value = -0.0714
Strand = ACTTCTGC; value = 0.125
Strand = AAAGTATA; value = -0.189
Strand = AACGATAA; value = 0.0374

Sample 2 — target: CCNA1, cyclin fold, Cln2 fusion (human); technique: yeast growth competition, sequencing; medium: yeast; notes: weak parent motif; reference: not given; reading: higher = stronger binding; quantity: normalised enrichment score
Starting sequence: SAMHD1 docking peptide (human); ASKSRVQLFKDDP
Change = ASKSRVQLFQDDP [K10Q]; value = 0.389
Change = ASKSRVQLFKEDP [D11E]; value = 0.336
Change = ASKSRVQLMKDDP [F9M]; value = 0.595
Change = ATKSRVQLFKDDP [S2T]; value = 0.43
Change = ASKSQVQLFKDDP [R5Q]; value = 0.328
Change = ASKSRVQYFKDDP [L8Y]; value = 0.161
Change = ASKSRVQLFKKDP [D11K]; value = 0.466
Change = ASKSRVQLFMDDP [K10M]; value = 0.116
Change = ASKSLVQLFKDDP [R5L]; value = -0.084
Change = ASKSSVQLFKDDP [R5S]; value = -0.00974
Change = ASKSRVYLFKDDP [Q7Y]; value = 0.478
Change = ASKSRVQLFKMDP [D11M]; value = 0.111
Change = ASKSHVQLFKDDP [R5H]; value = 0.119
Change = ASLSRVQLFKDDP [K3L]; value = 0.359
Change = ASKSRVQLFCDDP [K10C]; value = 0.247
Change = ASKSRVQLFIDDP [K10I]; value = 0.262
Change = ASKSRVQLYKDDP [F9Y]; value = 0.31
Change = ASKSRVVLFKDDP [Q7V]; value = 0.115
Change = ASKSRVQLFKADP [D11A]; value = -0.0976
Change = ASKSRVSLFKDDP [Q7S]; value = 0.0656
Change = ASESRVQLFKDDP [K3E]; value = -0.0795

Sample 3 — technique: universal PBM; form: double-stranded DNA, one strand shown; medium: in vitro; tested at: 600 nM; reading: higher = stronger binding; quantity: E-score
Target: Sal-like protein 4, full length isoform A (SALL4, Homo sapiens, UniProt Q9UJQ4, residues 1-1053)
UniProt Q9UJQ4, sequence (whole entry, looked up): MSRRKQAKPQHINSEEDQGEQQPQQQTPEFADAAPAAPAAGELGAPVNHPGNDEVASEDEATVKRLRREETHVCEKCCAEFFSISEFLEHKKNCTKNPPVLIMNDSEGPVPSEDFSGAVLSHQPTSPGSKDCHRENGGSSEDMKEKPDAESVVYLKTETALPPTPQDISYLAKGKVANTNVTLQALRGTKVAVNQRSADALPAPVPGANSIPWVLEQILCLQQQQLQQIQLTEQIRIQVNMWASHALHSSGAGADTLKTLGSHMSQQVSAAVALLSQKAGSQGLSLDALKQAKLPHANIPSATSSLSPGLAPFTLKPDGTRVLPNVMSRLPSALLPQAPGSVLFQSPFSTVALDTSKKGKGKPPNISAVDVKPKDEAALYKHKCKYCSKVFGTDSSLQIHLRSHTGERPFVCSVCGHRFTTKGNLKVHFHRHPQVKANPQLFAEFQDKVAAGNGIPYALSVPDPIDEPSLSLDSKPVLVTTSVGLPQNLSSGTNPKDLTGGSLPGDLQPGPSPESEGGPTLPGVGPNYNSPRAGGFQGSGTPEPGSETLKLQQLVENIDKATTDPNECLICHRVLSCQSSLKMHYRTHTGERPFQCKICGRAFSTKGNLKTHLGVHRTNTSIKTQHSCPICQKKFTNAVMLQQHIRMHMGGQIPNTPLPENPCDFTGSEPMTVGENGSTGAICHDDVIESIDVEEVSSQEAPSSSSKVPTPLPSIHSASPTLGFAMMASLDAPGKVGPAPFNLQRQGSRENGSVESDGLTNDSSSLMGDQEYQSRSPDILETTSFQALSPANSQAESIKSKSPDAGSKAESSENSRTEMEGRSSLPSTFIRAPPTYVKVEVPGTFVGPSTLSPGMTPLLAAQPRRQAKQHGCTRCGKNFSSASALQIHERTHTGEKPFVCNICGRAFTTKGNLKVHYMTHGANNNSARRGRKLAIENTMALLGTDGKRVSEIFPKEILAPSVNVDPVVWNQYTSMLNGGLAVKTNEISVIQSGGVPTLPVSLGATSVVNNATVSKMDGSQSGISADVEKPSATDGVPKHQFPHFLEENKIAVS
Notes: 8-mer, flanks averaged, mean of replicates
Strand = CCGCTGGA; value = -0.212
Strand = CCCGGCTA; value = -0.221
Strand = CACGCAGA; value = -0.0806
Strand = CCACCGCC; value = -0.288
Strand = CAATGTTC; value = -0.0321
Strand = AACGCTCC; value = -0.0583
Strand = CACAGGAG; value = -0.0316
Strand = ACTAGCGC; value = -0.204
Strand = GCGATGCC; value = -0.299
Strand = GGAACTCA; value = -0.0401
Strand = CCCAAGAA; value = 0.012
Strand = ATTTTTGG; value = 0.216
Strand = AGCGAGTG; value = -0.178
Strand = AGCACGCC; value = -0.271
Strand = CGTTAATC; value = 0.133
Strand = AGCATCCT; value = -0.183
Strand = ATCAGCAA; value = -0.0753
Strand = CGCTAATA; value = 0.279
Strand = CTTAAGAC; value = 0.0396
Strand = ATATTGCG; value = 0.326
Strand = GTCCCAAA; value = -0.0694
Strand = CACAGTCC; value = -0.194

Sample 4 — technique: DHFR PCA, deep sequencing; medium: yeast; added: (+)-ABA 17 µM; reference: wild-type fitted maximum; reading: higher = stronger binding; quantity: relative binding score
Target: ABI1, truncated, D143A, DHFR fusion (Arabidopsis thaliana)
Notes: methotrexate growth selection, single substitutions
Starting sequence: PYL1, truncated, DHFR fusion (Arabidopsis thaliana); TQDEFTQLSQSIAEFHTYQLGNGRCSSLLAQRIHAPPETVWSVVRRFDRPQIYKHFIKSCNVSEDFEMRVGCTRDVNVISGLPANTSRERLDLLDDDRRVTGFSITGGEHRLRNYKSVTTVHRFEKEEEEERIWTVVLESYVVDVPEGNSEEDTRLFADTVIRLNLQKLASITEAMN; partner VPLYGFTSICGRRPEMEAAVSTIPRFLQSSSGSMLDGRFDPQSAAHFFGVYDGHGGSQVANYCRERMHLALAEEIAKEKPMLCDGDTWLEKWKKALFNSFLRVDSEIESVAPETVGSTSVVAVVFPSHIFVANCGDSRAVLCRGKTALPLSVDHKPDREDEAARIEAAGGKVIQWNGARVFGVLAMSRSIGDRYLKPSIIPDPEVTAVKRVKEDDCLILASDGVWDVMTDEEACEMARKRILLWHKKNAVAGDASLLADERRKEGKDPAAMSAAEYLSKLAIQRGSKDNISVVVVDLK
Change = T106K; value = 44.6%
Change = S26D; value = 22.3%
Change = L94G; value = -15.8%
Change = N177V; value = 88.4%
Change = N165C; value = -11.2%
Change = N77E; value = 92.2%
Change = S150T; value = 92.5%
Change = C72H; value = 59.8%
Change = D159I; value = -24.1%
Change = F124H; value = 71.7%
Change = R88M; value = 72.8%
Change = K58Q; value = 76.3%
Change = P36C; value = 71.6%
Change = L28M; value = 82.5%
Change = S104V; value = 11.3%
Change = N114P; value = -6.78%
Change = S171N; value = 89.7%
Change = V62F; value = 55.5%
Change = R24M; value = 77.9%
Change = D153F; value = 0.572%
Change = S171T; value = 90.3%
Change = E174Q; value = 75.9%
Change = K116F; value = 5.55%
Change = E130M; value = 82.9%
Change = R111I; value = 7.62%

Some of these lines once more (sample 1):
Strand = GCAACCCC; value = 0.0939
Strand = CGATTCAC; value = 0.0117
Strand = AGCGAGCT; value = -0.0714
Strand = TATCTCCA; value = -0.147
Strand = CCGGTCCC; value = 0.227
Strand = AATGACCG; value = 0.108
Strand = AAAGTATA; value = -0.189
Strand = ACTTCTGC; value = 0.125
Strand = AAGTTAAA; value = -0.109
Strand = CGAGGTTC; value = -0.0126
Strand = CCTGATTA; value = -0.119
Strand = CCAACGCC; value = 0.135
Strand = AACGATAA; value = 0.0374
